Results gathered from unrelated publications.
Numbered parts are unrelated; each lists some results of a single study. Substitutions count along the parent as printed.
Chain of UniProt Q01959 (whole entry, looked up): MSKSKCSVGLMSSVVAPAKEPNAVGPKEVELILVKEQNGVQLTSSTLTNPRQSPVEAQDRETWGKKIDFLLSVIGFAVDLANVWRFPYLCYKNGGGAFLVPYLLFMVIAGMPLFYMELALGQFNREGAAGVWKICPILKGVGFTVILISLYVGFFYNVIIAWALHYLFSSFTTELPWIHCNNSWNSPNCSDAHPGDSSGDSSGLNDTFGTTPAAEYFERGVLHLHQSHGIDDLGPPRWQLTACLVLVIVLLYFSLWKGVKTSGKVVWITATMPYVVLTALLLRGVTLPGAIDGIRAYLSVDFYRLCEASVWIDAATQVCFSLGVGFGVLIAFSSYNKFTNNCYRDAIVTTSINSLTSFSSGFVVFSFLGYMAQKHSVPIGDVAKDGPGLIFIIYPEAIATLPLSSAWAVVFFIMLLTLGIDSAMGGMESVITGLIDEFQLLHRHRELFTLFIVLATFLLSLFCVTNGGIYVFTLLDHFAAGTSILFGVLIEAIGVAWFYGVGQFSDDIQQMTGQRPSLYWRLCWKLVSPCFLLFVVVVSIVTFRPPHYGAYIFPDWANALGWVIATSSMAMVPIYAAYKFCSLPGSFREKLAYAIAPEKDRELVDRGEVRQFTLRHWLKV

Block 1
Target: UBE2A UBC core domain (UniProt P49459)
Chain of UniProt P49459 (whole entry, looked up): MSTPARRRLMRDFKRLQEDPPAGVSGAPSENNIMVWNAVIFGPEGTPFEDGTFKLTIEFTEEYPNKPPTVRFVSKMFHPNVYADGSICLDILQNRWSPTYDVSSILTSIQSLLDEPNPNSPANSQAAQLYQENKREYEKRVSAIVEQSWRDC
Method: yeast two-hybrid
Matrix: yeast
Setting: mostly zero background
Reference: not given
Reading: higher = stronger interaction
Endpoint: lacZ reporter activity
B1: RNF166 RING domain (UniProt Q96A37); chain GDSGLEAQYTCPICLEVYHRPVAIGSCGHTFCGECLQPCLQVPSPLCPLCRLPFDPKKVDK
B2: RNF152 RING domain (UniProt Q8N8N0); chain ETLSQDSLLECQICFNYYSPRRRPKLLDCKHTCCSVCLQQMRTSQKDVRCPWCRGVTKLPPGFS
B3: RLIM RING domain (UniProt Q9NVW2); chain SFGENDALKTCSVCITEYTEGNKLRKLPCSHEYHVHCIDRWLSENSTCPICRRAVLASGNRE
B4: MEX3B RING domain (UniProt Q6ZN04); chain SGLRRKGSRDCSVCFESEVIAALVPCGHNLFCMECANRICEKSEPECPVCHTAVTQAIRIF
B5: TRIM54 RING domain (UniProt Q9BYV2); chain SMDNLEKQLICPICLEMFSKPVVILPCQHNLCRKCANDVFQASNPLWQSRGSTTVSSGGRFRCPSCRHEVVLDRHGV
Sequence = KPDKMEETLTCIICQDLLHDCVSLQPCMHTFCAACYSGWMERSSLCPTCRCPVERICKNH (CHFR RING domain (UniProt Q96EP1)); result = 0
Sequence = B1 (RNF166 RING domain); result = 0
Sequence = B2 (RNF152 RING domain); result = 0
Sequence = B3 (RLIM RING domain); result = 0
Sequence = YCEMGSTFQLCKICAENDKDVKIEPCGHLMCTSCLTAWQESDGQGCPFCRCEIKGTEPII (CBLB RING domain (UniProt Q13191)); result = 0
Sequence = B4 (MEX3B RING domain); result = 0
Sequence = B5 (TRIM54 RING domain); result = 0
Sequence = QVQSRTKIEECVVCSDKKAAVLFQPCGHMCACENCANLMKKCVQCRAVVERRVPFI (MIB1 RING domain (UniProt Q86YT6)); result = 0

Block 2
Target: CCNE1, cyclin fold, Cln2 fusion (human)
Method: yeast growth competition, sequencing
Matrix: yeast
Setting: strong parent motif
Reference: not given
Reading: higher = stronger binding
Endpoint: normalised enrichment score
Starting sequence: viral docking peptide; KGVKRKLFAEDSS
Substitution = S12H; result = 7.15
Substitution = D11G; result = 7.4
Substitution = A9L; result = 7.33
Substitution = A9N; result = 6.87
Substitution = A9T; result = 7.42
Substitution = F8L; result = 0.741
Substitution = V3E; result = 1.32
Substitution = F8I; result = 0.627

Other studies, line by line
Molecule = O=C1CCc2cc(Nc3cc(OC4CCOCC4)c([N+](=O)[O-])cc3Cl)ccc2N1; target or system = Sodium-dependent dopamine transporter (SLC6A3, Homo sapiens, UniProt Q01959); assay = binding, radioligand binding; setting = 10 µM; endpoint = inhibition; result = 13.6%
Molecule = VDFLEENI; target or system = Mamu-B*01 macaque; assay = peptide-MHC binding; system = peptide; setting = concentration not given; endpoint = binding; result = inactive
Molecule = COc1ccc2c(c1)N(C[C@H](C)CN(C)C)c1ccccc1S2; target or system = HEK-293T/ACE2; setting = 17.5 h; endpoint = CC50; result = 42.2 µM

Repeated from above (block 1):
Sequence = B5 (TRIM54 RING domain); result = 0
